Published values pooled from the literature.
Each numbered part is a random draw from the data of one study; scales do not carry over between parts. Substitutions count along the parent as printed.

Study 1
Target: Hepatocyte nuclear factor 3-alpha (Foxa1, Mus musculus, UniProt P35582, residues 1-468, full length assumed)
Chain of UniProt P35582 (whole entry, looked up): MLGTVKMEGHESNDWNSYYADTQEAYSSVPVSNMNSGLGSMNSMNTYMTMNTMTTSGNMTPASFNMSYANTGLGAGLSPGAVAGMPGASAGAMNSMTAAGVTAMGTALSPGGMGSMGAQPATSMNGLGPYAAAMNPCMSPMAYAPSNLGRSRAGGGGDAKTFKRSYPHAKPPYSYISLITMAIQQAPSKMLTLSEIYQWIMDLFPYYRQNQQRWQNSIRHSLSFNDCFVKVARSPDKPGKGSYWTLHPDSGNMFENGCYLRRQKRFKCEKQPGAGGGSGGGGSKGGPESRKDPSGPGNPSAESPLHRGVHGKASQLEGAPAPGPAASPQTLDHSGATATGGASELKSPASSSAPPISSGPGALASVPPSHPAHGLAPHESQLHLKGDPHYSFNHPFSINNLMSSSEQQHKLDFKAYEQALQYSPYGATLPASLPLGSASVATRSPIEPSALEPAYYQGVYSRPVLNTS
Technique: EMSA with sequencing
Form: double-stranded DNA, one strand shown
Medium: in vitro
Tested at: 10 and 20 nM
Setting: whole designed probe, mean of two concentrations, ends assumed
Reference: negative control set to 0
Direction: higher = stronger binding
Measurement: normalised bound fraction
All sequences stand within: GTGAGCGGTGCCCATTGATGGGGAAC … TTTCACTGGGATCGTGGGGAC
TCTTTCACTCAAGTGGTATATCCCACAGCCCTAAAGAAGCAAGGGAAATAAGAATTAGAACTAGACATCCCAGGAGACAAAGAATTCAACAAAGCAAACATTAACCAATCCCTTCACTATCACTTCCTGCTTACAGAAAATCTCTCTGGCTCAGGCCGGGCAGTGAGTTCATTTATTTCAACAAAATCAAAGA: 0.362 ratio
ATGAAGGGCTGCCAGTGTAATTTGAACCTCAAATAAACAACAGATAAAACTGTAGTATAAGTATGTCCCATATAATGCACATCACGATCTTTTTGTTTGCCTAATCTGGCAAAGATATTGACTTAACACACACTAATCTGTTGACAGGTAGGTGAAATATTTGAACTTCTACGTTGCTTCTCTAATCCTGTCC: 0.393 ratio
ACATGCTTTCTTTCCTTTTTTTTTTTCTTTTTGACCTGTGTGTTTTTTACTCTATGTAATTTTGGACAGCTGAATCATTACCTTTCTTATTCATGTTTACAGAGAGTTTATTTATTTGGAACAAAGAGAAAGTTTAAAAATTTGGAAGTTCTCCAAACATTTTCAGTTAAGCAGCATACCATATACAGTGATT: 0.255 ratio
TCCCCATGGCTGATATGTTATTTTCCTCATCTACAGAGATTTCTGTCCACCAAGAACTCCATCATAGTGTTTTTACATTCTCCATTTTTATGCTGTTTACAGAAACAGAAACTGTCCTTTTCAGATGGGGTCTCAAGCGCAGCCCAACATACCACAGGAAGAAATTGCCCCATCTTCCCTGGAGAAAATGCCA: 0.125 ratio
ATCTTCCCCCTCTTCCTTGCCCCACCAGCTCACCTTCCCGGGTTATTTGCACAAAGGAAAATAAATAAAGCCGGCATTCGTTAACGCAGTTCTGGCGCAAACTGCTGTTTGCTCTGGATCTAACATGGTCCTTTGGCGACGCCAGGCTCCGGGAGAGCAAAGCACCGTGTCAGGGCCATGATCCGGGGTGGCC: 0.371 ratio
CTGAGGCGCTGCAGGCCCGGCTTCTGGCTGCGGGGGAGCTGTACCCTGAAGCCTCGCCGGAACTCGCGTCTGGGGCCAGCTCGGCGCACTAGAGTCAACAGGGACTGTATGCAAAACCCACTTCCTCCCAGGCCCTCTAGGGGGATGGTCAGGCTTCTGCAGAGATGGGGAGGATCCTTTCCTGGTAAGGGGA: 0.0236 ratio
GTCCCTGGGCCTGGCTTGGGACAGACAGAGGCGTCATCTTGTTCTCATATGCGGGAAGGCTATGAAAAGAAAACCGCGTGTTGGTCCAAAATGTAATCTAGAATTACACTAGGATCTTTTGTTCTCACTCTGACATGGTCAGAATTAATTTGGAGGTCCAAAAAGAGGGCGTTTTGTTTTTTAATCTGAATTA: -0.0684 ratio
AGTCATAAAAGCAAAATAATACTGCCAACAAAGAAAATTTTACCTGGAAAAATTTACCTCTAGAATAAGGATAAAAAATAAAGACTTTATAAGGTAATCTAAAGCTGTCAGTCTTTGTCACCATGTGTATAGTTCTATAAGAAATGGTAAAGTAATTTTATACACAGATCTACAATTCTCTACTATAATAATA: 0.0607 ratio

Study 2
Substance: PhoQ, residues 284 288 289 292 302 303 ASTSDA
Technique: Sort-seq
Item: YFP reporter
Medium: E. coli
Setting: PhoQ-PhoP variant library
Added: 10 µM Mg2+
Reference: high Mg2+ state
Direction: higher = stronger signaling
Measurement: fold induction
PhoP, residues 12 14 15 18 19 LHHYF (Escherichia coli, UniProt P23836): 9.87
PhoP, residues 12 14 15 18 19 TPWTL (Escherichia coli, UniProt P23836): 4.72
PhoP, residues 12 14 15 18 19 VGHWL (Escherichia coli, UniProt P23836): 9.29
PhoP, residues 12 14 15 18 19 NFFVT (Escherichia coli, UniProt P23836): 13.4

Study 3
Target: RING finger protein unkempt homolog, zinc fingers 1-6, GST-SBP tag (UNK, Homo sapiens, UniProt Q9C0B0, residues 30-357)
Technique: RNA Bind-n-Seq
Form: RNA
Medium: in vitro
Tested at: not given
Setting: RNA with constant flanks, human-mouse chimeric sites, ends assumed
Reference: input RNA pool
Direction: higher = stronger binding
Measurement: bound/input enrichment
All sequences stand within: GGGAGUUCUACAGUCCGACGAUC … CAACAGAGGAUUGAGCAUCA
Target sequence (chain): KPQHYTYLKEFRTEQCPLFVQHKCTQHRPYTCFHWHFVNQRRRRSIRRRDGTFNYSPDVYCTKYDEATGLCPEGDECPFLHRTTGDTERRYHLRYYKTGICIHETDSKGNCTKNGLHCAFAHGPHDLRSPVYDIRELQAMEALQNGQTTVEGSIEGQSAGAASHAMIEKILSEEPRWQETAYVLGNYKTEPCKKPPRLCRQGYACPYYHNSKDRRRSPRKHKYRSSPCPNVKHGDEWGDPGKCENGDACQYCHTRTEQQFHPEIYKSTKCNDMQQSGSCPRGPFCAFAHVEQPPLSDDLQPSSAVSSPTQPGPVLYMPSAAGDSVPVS
AUUGUUGAAGCUAACCCACUUUUAGAAGCAUUUGGAAAUGCAAAGACUGUUCGCAACAAUAAUAGCAGUCGAUUUGGGAAAUUUGUAGAAAUUCAUUUCAAUGAAAAGAGUUCGGUUGUU: 0.459 ratio
GAUAGGAAAAGCUUGUUGGAGACCCGCUUGCAUGUCACUGGUAGAGAACUGAGGUCCCAAAUAGCUGAAACUUUCGGAUUUCAAGAAAAUUACAUCAAGAUCGUAAUAAAUAAGAAACAG: 0.782 ratio
GAAUCCUCCCGUGCAAAAUUUUGCAACACCAAGCUCACAGCAGCAGCAUCUUAGUCACAGUAGGGUAGUUUUGGGGCUCUGUGGCCAGGGUUUUAUUCACAUGCAGGUUUGGAAAAUGUA: 2.25 ratio
CACACACUCUUCUGCGGGACCCUCAUCCUGCAGGCCCGGGCCUAUGUGGGACCGCACGUCCUGGCAGUGGUGACUCGCACAGGGUUCUGCACGGCAAAAGGGGGCCUGGUGAGCUCCAUC: 0.0915 ratio
CACAGAGGAGAUCUGCUGUUCCUCACGAAUUUCCGGGAAGACCCAAUCAGAGCUGGUGAAAUAGUUGUUUUUAAGGUUGAAGGACGAGACAUUCCGAUAGUUCACAGAGUAAUCAAGGUU: 1.92 ratio
CUGGCCUUCUGAGCAUCAGGGGCCUCCUUUCGUAUAGUCACUGCUUCUGCUACGGAUACUUUCAGCUGCAACUCCCUACUGGGUGGGGCACCCAUUUCAGGCAGAAGGUUUUGGUACCCU: 0.189 ratio
GUUGCCAGGUUCCGGUGCCGUUGGGCUCGGUUCUCUCAGUGCUACGUUGUCUCUACGCUCUCAAUCCGCCAUCCAACAAACAUGGAUCAGGUAAUGCAGUUUGUGGAGCCCAGCCGGCAG: 0.112 ratio
AAAGUGAUGACUAUGUUUGUCCAACGACAGGUAUUUUCGGAGAGCAAGGAUGAGAUUGCGUUAGUCCUGUUUGGUACAGAUGGCACUGAUAAUGCCCUUGCUGGCAAGGACCAGUAUCAG: 0.132 ratio
GCCACCAGAUCCCAGAAACAUGACCCUUGCAGCCUAUAAAGAGAAGAUGAAGGAGCUCCCACUAGUGUCCUUGUUCUGCUCCUGCUUCCUGGCCGAUCCCCUGAAUAAGUCGUCCUACAA: 0.834 ratio
UGUAGUUUCUUGAUUUAUCAUUUUUCUCUUUUCUUUCUUUCCUUUAGGAAAAGCCUAAAGAUUAGGUUGUAAGAAAAACAGAAGCCAGCCAUGUUUCACCUGUGUUAAUUACAGGUAGUC: 0.331 ratio
AAAGCCCUUGAAGAAAAAAAAAACUCGAACAGAUUUGACAAGGGUAGCCAGCUUGGAGUCUAGCAACUUGCCAAUGUGUUUACCAAUUUUGGGGGCUGUUUUUCUUUUCUUCUUUCAAAU: 0.422 ratio

Study 4
Target: ABI1, truncated, D143A, DHFR fusion (Arabidopsis thaliana)
Technique: DHFR PCA, deep sequencing
Medium: yeast
Setting: methotrexate growth selection, single substitutions
Added: (+)-ABA 0.39 µM
Reference: wild-type fitted maximum
Direction: higher = stronger binding
Measurement: relative binding score
Starting sequence: PYL1, truncated, DHFR fusion (Arabidopsis thaliana); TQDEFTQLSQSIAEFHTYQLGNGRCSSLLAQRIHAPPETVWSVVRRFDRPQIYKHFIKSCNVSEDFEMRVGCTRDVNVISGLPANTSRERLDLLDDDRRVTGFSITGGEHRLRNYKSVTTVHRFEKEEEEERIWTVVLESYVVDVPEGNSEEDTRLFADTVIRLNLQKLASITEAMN; partner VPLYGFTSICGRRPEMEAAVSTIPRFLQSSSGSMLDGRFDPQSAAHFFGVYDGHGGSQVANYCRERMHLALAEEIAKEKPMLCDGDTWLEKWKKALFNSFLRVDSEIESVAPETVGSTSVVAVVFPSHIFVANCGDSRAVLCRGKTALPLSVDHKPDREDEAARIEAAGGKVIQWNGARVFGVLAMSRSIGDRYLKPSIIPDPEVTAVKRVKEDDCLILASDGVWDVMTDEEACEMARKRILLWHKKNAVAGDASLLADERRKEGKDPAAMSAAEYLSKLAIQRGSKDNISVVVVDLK
E127M: 53.8%
T1F: 36.1%
Q167M: 37.6%
L82T: 4.17%
Q19C: 24.2%
E67G: 9.84%
D75A: 16.6%
W41D: -18.4%
T106S: -3.6%
L28P: -6.66%
D95I: -13.6%
G21P: 32.2%
S59Y: -0.924%
S26W: 2.14%
I105G: -7.49%
G102M: -0.00742%
R111E: -12.1%
H110M: 24.4%
F15Y: 40.1%

Study 5
Target: CCND3, cyclin fold, Cln2 fusion (human)
Technique: yeast growth competition, sequencing
Medium: yeast
Setting: weak parent motif
Reference: not given
Direction: higher = stronger binding
Measurement: normalised enrichment score
Starting sequence: E2F1 docking peptide (human); PPVKRRLDLETDH
PPQKRRLDLETDH [V3Q]: 0.143
PPVKRRLRLETDH [D8R]: 0.126
PPVARRLDLETDH [K4A]: 0.194
PPVKRRLDLETDL [H13L]: 0.133
PPVKRRQDLETDH [L7Q]: 0.0844
PPVKRRLVLETDH [D8V]: 0.106
PHVKRRLDLETDH [P2H]: 0.147
PRVKRRLDLETDH [P2R]: 0.126
PPVKRRLDLETDA [H13A]: 0.0423
PMVKRRLDLETDH [P2M]: 0.0991
PPVKRRLILETDH [D8I]: 0.144
PPVKRRRDLETDH [L7R]: 0.0768
PPVPRRLDLETDH [K4P]: 0.103
PPVKVRLDLETDH [R5V]: -0.0176
PPVKRRLDLETGH [D12G]: 0.114
PPVKRRLDLETDI [H13I]: 0.112
EPVKRRLDLETDH [P1E]: 0.169

A few entries again (study 1):
AGTCATAAAAGCAAAATAATACTGCCAACAAAGAAAATTTTACCTGGAAAAATTTACCTCTAGAATAAGGATAAAAAATAAAGACTTTATAAGGTAATCTAAAGCTGTCAGTCTTTGTCACCATGTGTATAGTTCTATAAGAAATGGTAAAGTAATTTTATACACAGATCTACAATTCTCTACTATAATAATA: 0.0607 ratio
TCTTTCACTCAAGTGGTATATCCCACAGCCCTAAAGAAGCAAGGGAAATAAGAATTAGAACTAGACATCCCAGGAGACAAAGAATTCAACAAAGCAAACATTAACCAATCCCTTCACTATCACTTCCTGCTTACAGAAAATCTCTCTGGCTCAGGCCGGGCAGTGAGTTCATTTATTTCAACAAAATCAAAGA: 0.362 ratio
GTCCCTGGGCCTGGCTTGGGACAGACAGAGGCGTCATCTTGTTCTCATATGCGGGAAGGCTATGAAAAGAAAACCGCGTGTTGGTCCAAAATGTAATCTAGAATTACACTAGGATCTTTTGTTCTCACTCTGACATGGTCAGAATTAATTTGGAGGTCCAAAAAGAGGGCGTTTTGTTTTTTAATCTGAATTA: -0.0684 ratio
TCCCCATGGCTGATATGTTATTTTCCTCATCTACAGAGATTTCTGTCCACCAAGAACTCCATCATAGTGTTTTTACATTCTCCATTTTTATGCTGTTTACAGAAACAGAAACTGTCCTTTTCAGATGGGGTCTCAAGCGCAGCCCAACATACCACAGGAAGAAATTGCCCCATCTTCCCTGGAGAAAATGCCA: 0.125 ratio
CTGAGGCGCTGCAGGCCCGGCTTCTGGCTGCGGGGGAGCTGTACCCTGAAGCCTCGCCGGAACTCGCGTCTGGGGCCAGCTCGGCGCACTAGAGTCAACAGGGACTGTATGCAAAACCCACTTCCTCCCAGGCCCTCTAGGGGGATGGTCAGGCTTCTGCAGAGATGGGGAGGATCCTTTCCTGGTAAGGGGA: 0.0236 ratio
